Measurements from different studies.
Numbered parts are unrelated; each lists some results of a single study. Substitutions count along the parent as printed.
Sequence of UniProt P08913 (whole entry, looked up): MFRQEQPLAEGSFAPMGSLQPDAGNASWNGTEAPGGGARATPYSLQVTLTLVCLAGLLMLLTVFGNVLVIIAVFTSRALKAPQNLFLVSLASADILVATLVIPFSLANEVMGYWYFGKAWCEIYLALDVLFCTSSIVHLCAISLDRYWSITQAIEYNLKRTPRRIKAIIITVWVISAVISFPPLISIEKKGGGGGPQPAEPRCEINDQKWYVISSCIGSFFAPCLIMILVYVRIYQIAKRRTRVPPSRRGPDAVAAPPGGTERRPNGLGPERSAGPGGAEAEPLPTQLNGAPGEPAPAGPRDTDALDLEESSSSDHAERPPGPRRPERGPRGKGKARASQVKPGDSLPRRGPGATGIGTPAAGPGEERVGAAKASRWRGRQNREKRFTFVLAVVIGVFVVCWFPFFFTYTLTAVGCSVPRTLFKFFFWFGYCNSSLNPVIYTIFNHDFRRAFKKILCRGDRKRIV

Study 1 — target: CCNE1, cyclin fold, Cln2 fusion (human); technique: yeast growth competition, sequencing; matrix: yeast; notes: strong parent motif; relative to: not given; direction: higher = stronger binding
Starting sequence: viral docking peptide; YKVKRRLVFGADD; partner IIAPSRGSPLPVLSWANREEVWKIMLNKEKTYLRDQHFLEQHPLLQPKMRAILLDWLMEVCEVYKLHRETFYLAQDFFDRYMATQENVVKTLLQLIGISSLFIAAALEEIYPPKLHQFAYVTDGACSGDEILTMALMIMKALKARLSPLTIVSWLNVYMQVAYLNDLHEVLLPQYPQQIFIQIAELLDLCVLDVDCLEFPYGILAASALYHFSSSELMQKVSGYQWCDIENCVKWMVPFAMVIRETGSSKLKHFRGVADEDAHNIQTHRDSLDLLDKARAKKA
Variant	normalised enrichment score
L7R	0.78
G10I	5.15
L7K	0.519
V3C	5.37
D12W	4.07
F9A	-0.689
K4N	4.63
L7Q	-0.0538
K2F	5.32
R6E	1.65
V3Y	3.64
K2V	5.13
V3L	0.962
K4T	2.58
D12Q	5.19

Study 2 — technique: competition protein-binding microarray; form: double-stranded DNA, one strand shown; matrix: in vitro; tested at: 2 µM; added: Cbf1 competitor, 0.05 µM; direction: higher = stronger binding; shared flanks, not repeated: … GTCTTGATTCGCTTGACGCTGCTG
Target: Phosphate system positive regulatory protein PHO4, full length, GST-tagged (PHO4, Saccharomyces cerevisiae, UniProt P07270, residues 1-312)
Notes: whole 60-bp probe, lowest competitor level
Construct (chain): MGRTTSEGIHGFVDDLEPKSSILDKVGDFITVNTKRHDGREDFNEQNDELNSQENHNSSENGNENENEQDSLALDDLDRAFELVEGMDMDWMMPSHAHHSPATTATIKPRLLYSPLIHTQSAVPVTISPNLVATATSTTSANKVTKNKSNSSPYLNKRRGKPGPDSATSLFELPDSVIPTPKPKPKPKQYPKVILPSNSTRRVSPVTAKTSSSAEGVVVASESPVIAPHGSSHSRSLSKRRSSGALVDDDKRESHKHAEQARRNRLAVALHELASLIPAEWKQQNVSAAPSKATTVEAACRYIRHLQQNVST
Sequence	fluorescence intensity
TCGGTGCGATTATTCTTCGTGCTTTAACAAGATGAG	6710 a.u.
GTCTTCGTCGTCGACACCGTGATGGGATTGTAGTTC	5370 a.u.
ACCGAATCTTCGTTCCACGTGGTTACCTGTCATGGT	18100 a.u.
CAAAAGTATCTTGACAACGTGGTCGAAATTGAGTAA	12600 a.u.
GTTTTGAATGTTTTCCTCGTGTGGAAGTAGAGTAGG	9830 a.u.
CCATCTTGTACTCACCACATGCCTATTAGTCACTAG	11500 a.u.
CGTCCTAGTGATTGCAGCGTGGGTGCCATGAGGAAG	9890 a.u.
CTTTCCCGATCTTGCCCTGTGGGTGTAGCACATTTG	4850 a.u.

Study 3 — technique: aptamer microarray, sandwich; form: DNA with 2'F-ANA; matrix: in vitro; tested at: 200 nM; added: Cy3 exosite-II aptamer, 400 nM; direction: higher = stronger binding; sequence: GGTTGGTGTGGTTGG
Target: Prothrombin, mature alpha-thrombin (F2, Homo sapiens, UniProt P00734)
Notes: whole 15-mer aptamer, many near background
Modification	mean fluorescence intensity
2'F-ANA at 1 3 4 7 9 10 11 13 15	59.7 a.u.
2'F-ANA at 2 4 8 10 13	72.6 a.u.
2'F-ANA at 1 5 6 7 8 9 15	89.6 a.u.
2'F-ANA at 3 5 7 9 11 14	54.8 a.u.
2'F-ANA at 1 2 3 6 8 12 13	348 a.u.
2'F-ANA at 1 3 5 6 7 8 10 14	61.4 a.u.
2'F-ANA at 7 8 14 15	224 a.u.
2'F-ANA at 1 4 8 10 12	68 a.u.

Single results of other studies
P1: PafA, mature enzyme, eGFP fusion (Elizabethkingia meningoseptica, UniProt Q9KJX5); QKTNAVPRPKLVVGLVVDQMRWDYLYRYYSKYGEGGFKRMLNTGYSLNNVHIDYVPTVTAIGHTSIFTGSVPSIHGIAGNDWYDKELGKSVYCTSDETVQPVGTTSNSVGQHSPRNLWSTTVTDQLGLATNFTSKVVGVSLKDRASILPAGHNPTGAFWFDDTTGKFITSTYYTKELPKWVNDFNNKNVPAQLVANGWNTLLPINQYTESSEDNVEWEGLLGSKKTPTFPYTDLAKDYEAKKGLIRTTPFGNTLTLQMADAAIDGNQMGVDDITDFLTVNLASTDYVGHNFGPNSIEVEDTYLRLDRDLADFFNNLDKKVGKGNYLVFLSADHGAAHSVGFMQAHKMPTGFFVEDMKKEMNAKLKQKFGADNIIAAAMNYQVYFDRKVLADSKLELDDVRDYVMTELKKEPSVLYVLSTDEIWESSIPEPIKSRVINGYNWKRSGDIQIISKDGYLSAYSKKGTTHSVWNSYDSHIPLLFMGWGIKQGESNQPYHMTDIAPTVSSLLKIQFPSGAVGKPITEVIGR
Molecule	target	test	test system	conditions	scale	quantity	value
CNC(=O)c1cc(C(=O)NC2CC2)cn(Cc2ccccc2)c1=O	Alpha-2A adrenergic receptor (ADRA2A, Homo sapiens, UniProt P08913)	binding, radioligand binding		10 µM		inhibition	-4.53%
P1 F132V	vanadate, free oxyanion	microfluidic competitive inhibition	in vitro, cell-free expressed	not given, derived from inhibition constants, unchanged parent 676 nM	lower = stronger binding	oxyanion analog dissociation constant	2270 nM
